Measured values from different studies.
Numbered parts are unrelated; each lists some results of a single study.

Block 1 — method: universal PBM; form: double-stranded DNA, one strand shown; matrix: in vitro; concentration: not given; direction: higher = stronger binding; endpoint: E-score
Target: Sal-like protein 4, full length isoform B (SALL4, Homo sapiens, UniProt Q9UJQ4-2, residues 1-616)
Setting: 8-mer, flanks averaged, mean of replicates
Construct (chain): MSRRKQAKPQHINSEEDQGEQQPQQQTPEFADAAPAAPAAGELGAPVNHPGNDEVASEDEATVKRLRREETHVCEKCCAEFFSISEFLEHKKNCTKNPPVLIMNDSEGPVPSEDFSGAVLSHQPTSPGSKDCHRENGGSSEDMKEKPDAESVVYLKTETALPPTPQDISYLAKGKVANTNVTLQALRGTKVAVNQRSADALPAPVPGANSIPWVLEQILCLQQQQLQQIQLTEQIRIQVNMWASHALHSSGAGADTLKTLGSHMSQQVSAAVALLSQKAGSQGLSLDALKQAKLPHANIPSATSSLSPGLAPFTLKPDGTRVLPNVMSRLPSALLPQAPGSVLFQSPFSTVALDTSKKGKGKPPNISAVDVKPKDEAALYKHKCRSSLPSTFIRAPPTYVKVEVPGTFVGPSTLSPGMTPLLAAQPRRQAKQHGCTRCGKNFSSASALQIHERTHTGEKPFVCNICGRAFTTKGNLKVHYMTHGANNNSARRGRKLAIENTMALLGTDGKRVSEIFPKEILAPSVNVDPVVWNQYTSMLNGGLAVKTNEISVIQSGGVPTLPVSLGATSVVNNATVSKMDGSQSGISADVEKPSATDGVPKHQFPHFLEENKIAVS
GGCTACCC: -0.332
GATGTCCA: -0.0168
CCAAAACC: -0.0183
GGAAAGAA: -0.0135
CATAACTA: 0.358

Block 2 — method: Spec-seq; form: double-stranded DNA, one strand shown; matrix: in vitro; concentration: not given; setting: whole probe, mean of replicates; reference: not given; direction: lower = stronger binding; endpoint: relative binding energy
Target: POU domain, class 5, transcription factor 1, POU domain (Pou5f1, Mus musculus, UniProt P20263, residues 131-289)
UniProt P20263, sequence (131-289, looked up): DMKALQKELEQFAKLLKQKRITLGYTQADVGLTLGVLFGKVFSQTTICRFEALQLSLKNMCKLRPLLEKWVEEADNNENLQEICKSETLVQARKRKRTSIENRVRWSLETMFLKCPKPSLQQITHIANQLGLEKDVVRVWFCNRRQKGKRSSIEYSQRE
GAGTCGTCTCGTCAGCACATGCGCTTCCGTAGAGCACTCAGGTC: 0.617 ln ratio
GAGTCGTCTCGTCAGCACATTGAAATCCGTAGAGCACTCAGGTC: -0.263 ln ratio
GAGTCGTCTCGTCAGCACATAGCGATCCGTAGAGCACTCAGGTC: 0.681 ln ratio

Block 3 — method: protein-binding microarray; form: double-stranded DNA, one strand shown; matrix: in vitro; concentration: 2540 nM top; setting: 60-bp whole probe; with: salmon DNA 0.4 mg/ml; reference: random background probes; direction: higher = stronger binding; endpoint: fitted relative affinity; constant ends, left off below: GCCTAGCAC … GTCTTGATTCGCTTGACGCTGCTG
Target: Interferon regulatory factor 3, full length, phosphomimetic (IRF3, Homo sapiens, UniProt Q14653, residues 1-427, S386D/S396D/S398D/S402D/T404D/S405D)
Target sequence (chain): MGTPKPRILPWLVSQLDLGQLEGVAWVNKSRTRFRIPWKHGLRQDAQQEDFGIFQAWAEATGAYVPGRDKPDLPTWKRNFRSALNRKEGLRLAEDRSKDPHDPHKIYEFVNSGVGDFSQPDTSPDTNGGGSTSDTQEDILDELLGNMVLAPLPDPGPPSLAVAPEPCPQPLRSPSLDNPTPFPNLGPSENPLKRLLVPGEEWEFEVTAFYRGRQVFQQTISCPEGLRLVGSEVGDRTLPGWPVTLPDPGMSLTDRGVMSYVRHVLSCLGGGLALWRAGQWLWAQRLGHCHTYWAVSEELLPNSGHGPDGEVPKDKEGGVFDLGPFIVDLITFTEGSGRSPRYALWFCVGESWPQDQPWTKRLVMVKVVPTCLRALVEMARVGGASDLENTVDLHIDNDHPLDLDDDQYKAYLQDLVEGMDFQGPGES
GACGGTTTCGGTTTTCGGGACGTGCTA: 9.99 z-score
TTCATTTTCTTTAACTCATTGTGCTAG: 1.71 z-score
GACGATCTCAGTATCGACACGTGCTAG: 0.859 z-score
GACGGTTTCGGTAACGGGACGTGCTAG: 5.64 z-score
TCACCTGAATGAAAACATACTGTGCTA: 0.29 z-score

Further values, each from its own experiment
PhoQ, residues 284 288 289 292 302 303 NLGVHL — fold induction (PhoP, residues 12 14 15 18 19 GQALL (Escherichia coli, UniProt P23836); Sort-seq, refers to: YFP reporter; E. coli; PhoQ-PhoP variant library, with: 10 µM Mg2+; reference: high Mg2+ state, higher = stronger signaling): 1.67
